Experimental data of several laboratories.
Lines come from different studies, so protocols differ. Numbers after ± are the reported error.
Fibroin-modulator-binding protein-1: Fibroin-modulator-binding protein-1 99-193 (Bombyx mori, UniProt Q5FBS0)
B1: CYP4F3 A27G/C46R/I34V/M14V/R49Q/W12G (Homo sapiens, UniProt Q08477); chain MALLLAVFLLGPVAASPWLLLLLVGGSWLLARVLAWTYTFYDNCRRLQCFPQPPKRNWFLGHLGLVTPTEQGMRVLTQLVATYPQGFKVWMGPIFPVIRFCHPNIIRSVINASAAIVPKDKVFYSFLKPWLGDGLLLSAGEKWSRHRRMLTPAFHFNILKPYMKIFNESVNIMHAKWQLLASEGSARLDMFEHISLMTLDSLQKCVFSFDSHCQEKPSEYIAAILELSALVTKRHQQILLYIDFLYYLTPDGQRFRRACRLVHDFTDAVIQERRRTLPSQGVDDFLQAKAKSKTLDFIDVLLLSKDEDGKKLSDEDIRAEADTFMFEGHDTTASGLSWVLYHLAKHPEYQERCRQEVQELLKDREPKEIEWDDLAQLPFLTMCIKESLRLHPPVPAVSRCCTQDIVLPDGRVIPKGIICLISVFGTHHNPAVWPDPEVYDPFRFDPKNIKERSPLAFIPFSAGPRNCIGQAFAMAEMKVVLGLTLLRFRVLPDHTEPRRKPELVLRAEGGLWLRVEPLS
B2: enzyme W53Y (Thermoplasma volcanium, UniProt Q978S7); chain MAFHGLVKYSDITVEGYPKIQYHGFIGNNRTAMLVAMNGYIDYGCLPNFNSNAVFSSILDKNKGGYFAIFPSDTTDVYVDQYYKEMTNVLVTEFVKNGKIILRLTDFMPDSEYGKISFPEVHRFVESFSEPIDITIDFKPTFNYGQDKPIIEKDQHGFIFTTDKESIGISSEFPLRKNSDRIFGNVKMEPRSSSWIIALYGIHHLFRTTDYKSYLRLQETTDYWRKWASSSSYAGAYHSMVMRSALALKVLFYEPTGLMVAAPTASLPEAIGGERNWDYRFTWIRDTAYVIEALSSIGYKYEATEFLYDMMDMITRDNRIRTIYSIDDSNDLEERIIDYEGYRGSRPVRIGNKAVDQLQIDQYGSIVRAIHSMAKAGGIVNSYLWDFVEQVMAKIEYLWKYPDSSIWEFRTEPKQYVYSKVMSWAAFDSAISMAKDLGLSAPIKQWKSIQDEIKKEVLEKGFDTDTNSFVQYYGSKNIDAALLRLPILGFIPANDEKFLGTLSRIEKELMVDGYLFKRYREDDGLKGDEGSFLMLTFWYIEDLILMKRLKKAREVLESVLEKANHLGLYSEEIDEKSGDFLGNFPQALSHLGVIRVAPKLEEALLKRTSKINS
B3: FDH1 (Arabidopsis thaliana, UniProt Q9S7E4); chain MAMRQAAKATIRACSSSSSSGYFARRQFNASSGDSKKIVGVFYKANEYATKNPNFLGCVENALGIRDWLESQGHQYIVTDDKEGPDCELEKHIPDLHVLISTPFHPAYVTAERIKKAKNLKLLLTAGIGSDHIDLQAAAAAGLTVAEVTGSNVVSVAEDELMRILILMRNFVPGYNQVVKGEWNVAGIAYRAYDLEGKTIGTVGAGRIGKLLLQRLKPFGCNLLYHDRLQMAPELEKETGAKFVEDLNEMLPKCDVIVINMPLTEKTRGMFNKELIGKLKKGVLIVNNARGAIMERQAVVDAVESGHIGGYSGDVWDPQPAPKDHPWRYMPNQAMTPHTSGTTIDAQLRYAAGTKDMLERYFKGEDFPTENYIVKDGELAPQYR
B4: enzyme Y136L/Y168I (Bradyrhizobium diazoefficiens, UniProt Q45222); chain MIQTERAVQQVLEWGRSLTGFADEHAVEAVRGGQYILQRIHPSLRGTSARTGRDPQDETLIVTFYRELALLFWLDDCNDLGLISPEQLAAVEQALGQGVPCALPGFEGCAVLRASLATLAYDRRDYAQLLDDTRCLSAALRAGHAQAVAAERWSYAEYLHNGIDSIAIANVFCCLSLLWGLDMATLRARPAFRQVLRLISAIGRLQNDLHGCDKDRSAGEADNAVILLLQRYPAMPVVEFLNDELAGHTRMLHRVMAEERFPAPWGPLIEAMAAIRVQYYRTSTSRYRSDAVRGGQRAPA
B5: enzyme (Mycosarcoma maydis, UniProt A0A0U2UYC4); chain MAPALNANPTTKRDELSAPSASHKLGMSSMASRAAGGGLKLTGLPDLSDSAGTLSDIFGTPQMREIWSDQNRVACYLEIEAALAIVQADLGIIPKNAAHEIVEHCRVQEIDWALYKQKTELIGYPVLGIVQQLVANCKDGLGEYCHWGATTQDITDTATVMQIRQSLTLVKQRLDSIVSSLEHLAEQHRNVPMAARSNLKQAVPITFGFKMARFLATFRRHQQRLVELEKRVYTLEFGGAAGNLSSLGDQGIATHDALAKMLDLAPAEIAWHTEHDRFAEVGTFLGLLTGTLAKLATDIKLMSQTEVGEVGEPFISNRGSSSTMPQKNNPISCVYIHACAANVRQGAAALLDAMQSDHERGTGPWEIIWVQLPLMMNWTSAALNNADFVLRGLQVFPDAMQHNLDLSKGLIVSEAVMMGLGNTLGRQYAHDAVYECCRTAFVQDRPLLDVLLENHEIASKLDRTELEKLCDPANYLGQCSQWIDRVLSRPSSA
B6: enzyme (Saccharina japonica, UniProt A0A097IUE3); chain QQLGKTASMATVSSLGIDKATGIKNPTTVHRNLPYPEVFEHEVKHKEGEVTSNGTFCVSTGQFTGRSPKDKYFVKQAPSDKNLDWGKVNVGVAPDVFKNIYKKAVKHYNDNVEKMYVFDGYCGTSPKSRKNVRIITELAWQHHFAKNMFIRPESEAEVADFAPDFTIVNACKVVNDDYKELGLNSEVAVVFNVEERKAVITGTWYGGEMKKGIFSMMNYWLPLDGVMAMHCSANKGKNGDTALFFGLSGTGKTTLSADPDRYLIGDDEHGWDDDGIFNFEGGCYAKTINLSHKNEPEIYDAIKKDALLENVIIKGNGDPDYTDVSKTENTRVSYPIYHIDNYEPSGMGGHPNSIVFLTCDAFGVLPPVSRLSAGQAMYHFLSGYTAKVAGTERGVTEPTPNFSACFGAAFLTLHPTAYADLLQKKLDTHGTQCFLINTGWTGGGYGVGKRMSIKATRACVNSVLDGSINKTKFTADPVFGFEVPADLPGVPSKVLNPRDAWSDKESYDTTRTKLAGMFKDNFTKFVKPGVTNYTAYGPK
Sequence of UniProt Q9R7D7 (whole entry, looked up): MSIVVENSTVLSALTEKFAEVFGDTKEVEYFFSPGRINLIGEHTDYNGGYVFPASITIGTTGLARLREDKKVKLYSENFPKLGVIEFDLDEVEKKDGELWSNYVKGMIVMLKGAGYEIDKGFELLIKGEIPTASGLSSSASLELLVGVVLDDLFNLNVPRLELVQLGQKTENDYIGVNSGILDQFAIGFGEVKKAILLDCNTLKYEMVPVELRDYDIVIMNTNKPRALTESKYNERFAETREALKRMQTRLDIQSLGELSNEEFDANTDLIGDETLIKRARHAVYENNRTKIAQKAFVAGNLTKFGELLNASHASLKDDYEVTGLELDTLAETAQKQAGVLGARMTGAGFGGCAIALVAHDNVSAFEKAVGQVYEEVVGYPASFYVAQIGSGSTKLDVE
Sequence of UniProt P09546 (whole entry, looked up): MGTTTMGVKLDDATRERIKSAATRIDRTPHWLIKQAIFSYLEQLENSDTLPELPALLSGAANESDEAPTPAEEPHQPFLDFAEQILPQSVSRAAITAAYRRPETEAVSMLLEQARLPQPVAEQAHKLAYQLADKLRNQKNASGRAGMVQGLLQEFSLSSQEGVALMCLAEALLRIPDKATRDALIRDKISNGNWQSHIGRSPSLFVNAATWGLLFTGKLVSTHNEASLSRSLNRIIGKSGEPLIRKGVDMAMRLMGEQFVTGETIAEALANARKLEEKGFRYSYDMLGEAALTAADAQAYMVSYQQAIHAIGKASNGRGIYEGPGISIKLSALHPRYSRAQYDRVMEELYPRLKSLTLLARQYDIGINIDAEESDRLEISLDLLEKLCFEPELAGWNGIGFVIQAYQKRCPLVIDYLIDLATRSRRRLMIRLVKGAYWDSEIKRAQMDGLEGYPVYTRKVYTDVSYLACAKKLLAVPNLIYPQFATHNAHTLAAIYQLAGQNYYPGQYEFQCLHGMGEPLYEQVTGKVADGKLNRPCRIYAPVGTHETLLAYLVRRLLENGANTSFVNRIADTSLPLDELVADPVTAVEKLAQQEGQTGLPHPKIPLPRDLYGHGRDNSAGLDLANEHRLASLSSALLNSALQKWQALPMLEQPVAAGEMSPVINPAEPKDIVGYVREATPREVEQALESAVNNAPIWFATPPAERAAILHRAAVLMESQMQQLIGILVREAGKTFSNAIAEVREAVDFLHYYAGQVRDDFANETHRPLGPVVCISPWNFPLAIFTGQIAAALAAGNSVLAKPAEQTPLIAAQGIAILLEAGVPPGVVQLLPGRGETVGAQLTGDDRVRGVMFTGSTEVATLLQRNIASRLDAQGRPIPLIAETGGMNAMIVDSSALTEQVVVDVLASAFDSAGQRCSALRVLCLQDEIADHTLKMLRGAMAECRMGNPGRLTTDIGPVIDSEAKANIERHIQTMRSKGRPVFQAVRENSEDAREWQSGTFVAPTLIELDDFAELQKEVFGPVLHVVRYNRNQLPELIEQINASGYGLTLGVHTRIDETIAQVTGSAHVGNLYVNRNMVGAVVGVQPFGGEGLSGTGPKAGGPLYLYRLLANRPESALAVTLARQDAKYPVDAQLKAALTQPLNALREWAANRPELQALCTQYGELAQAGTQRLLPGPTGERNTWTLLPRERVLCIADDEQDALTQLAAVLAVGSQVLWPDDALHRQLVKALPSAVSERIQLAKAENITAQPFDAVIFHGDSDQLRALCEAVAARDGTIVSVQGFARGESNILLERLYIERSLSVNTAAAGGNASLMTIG
Sequence of UniProt P22310 (whole entry, looked up): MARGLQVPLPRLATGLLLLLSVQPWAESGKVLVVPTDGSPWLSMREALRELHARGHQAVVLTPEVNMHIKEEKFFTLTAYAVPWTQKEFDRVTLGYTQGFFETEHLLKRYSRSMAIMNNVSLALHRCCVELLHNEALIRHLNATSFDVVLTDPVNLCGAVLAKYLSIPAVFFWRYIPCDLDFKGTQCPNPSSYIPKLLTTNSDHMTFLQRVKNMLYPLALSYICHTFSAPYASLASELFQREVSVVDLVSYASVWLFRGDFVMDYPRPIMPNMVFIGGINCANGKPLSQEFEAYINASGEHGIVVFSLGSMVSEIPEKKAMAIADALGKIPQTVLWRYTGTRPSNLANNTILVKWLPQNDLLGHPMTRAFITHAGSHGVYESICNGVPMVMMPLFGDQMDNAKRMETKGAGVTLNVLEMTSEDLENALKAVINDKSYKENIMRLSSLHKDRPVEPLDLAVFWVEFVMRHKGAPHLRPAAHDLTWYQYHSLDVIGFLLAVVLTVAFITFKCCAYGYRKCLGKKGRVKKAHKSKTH

GSGAGICTIV — binding intensity (human MAGI1-2/6 PDZ construct (MBP fusion); automated holdup; peptide, crude extract; concentration not given, uncorrected, unit not given; reference: biotin control resin, higher = stronger binding): 0.136
B1 — Km (CCCCC/C=C\C[C@@H](O)/C=C/C=C/C=C\[C@@H](O)CCCC(=O)O; steady-state kinetics; pH 7.4, with: LTB4): 56.2 µM
B2 (enzyme W53Y) — Km (OC[C@H]1O[C@H](O[C@H]2O[C@H](CO)[C@@H](O)[C@H](O)[C@H]2O)[C@H](O)[C@@H](O)[C@@H]1O; steady-state kinetics; pH 3.7, 30 °C): 84200 µM
B3 (FDH1) — Km (O=CO; steady-state kinetics; pH 7.5, 30 °C): 3850 µM
enzyme (Lactococcus lactis, UniProt Q9R7D7) — Km (Nc1ncnc2c1ncn2[C@@H]1O[C@H](COP(=O)(O)OP(=O)(O)OP(=O)(O)O)[C@@H](O)[C@H]1O; steady-state kinetics; pH 8, 24 °C): 53 µM
VQLIMQLMPFG — binding score (HLA class I histocompatibility antigen, A alpha chain, allele A*24:02 (Homo sapiens, UniProt P04439); conformational ELISA; peptide; concentration not given; reference: positive control peptide, direction not given): 9.1%
ATACATACATACATAC (dsDNA) — Kd (Fibroin-modulator-binding protein-1; ITC; double-stranded DNA, one strand shown): 0.107 ± 0.0045 µM
B4 (enzyme Y136L/Y168I) — Km (C=C1CC[C@@H]2C(C)(C)CCC[C@@]2(C)[C@@H]1CC/C(C)=C/COP(=O)(O)OP(=O)(O)O; steady-state kinetics): 2.95 µM
B5 (enzyme) — Km (O=C(O)/C=C(\CC(=O)O)C(=O)O; steady-state kinetics; pH 5.5, 37 °C): 430 µM
UGT1A4 (Homo sapiens, UniProt P22310) — Km (CN1CCN(CCCN2c3ccccc3Sc3ccc(C(F)(F)F)cc32)CC1; steady-state kinetics; 37 °C, not purified): 12 µM
enzyme (Parabacteroides distasonis, UniProt A0A7L5EB83) — Km (CC(=O)N[C@H]1[C@H](Oc2ccc([N+](=O)[O-])cc2)O[C@H](CO)[C@@H](O)[C@@H]1O[C@@H]1O[C@H](CO)[C@H](O)[C@H](O)[C@H]1O; steady-state kinetics; pH 6, 50 °C): 6870 µM
putA (Escherichia coli, UniProt P09546) — Km (COC1=C(OC)C(=O)C(C/C=C(\C)CCC=C(C)C)=C(C)C1=O; steady-state kinetics; pH 7.4, 20 °C, with: proline 200 mM): 16 µM
GGGAGAACUUCGACCAGAAGAUUGUGACCCGAUUUGUCACUCUUUCUAUGUACGCGGAAUUAUGUGCGCAUACAUGGAUCCUC (ssRNA; 2'-fluoro pyrimidines) — relative binding (integrin alphaV/beta3 31-992/27-718 (Homo sapiens); SPR; RNA; with: MnCl2 1 mM; higher = more binding): -0.1 RU
AGAGAGAGAGAG (dsDNA) — Kd (Fibroin-modulator-binding protein-1; ITC; double-stranded DNA, one strand shown): 5.31 ± 0.475 µM
B6 (enzyme) — Km (C=C(OP(=O)(O)O)C(=O)O; steady-state kinetics; pH 6.5, 25 °C, with: 2 mM ADP): 1100 µM

A few entries again:
ATACATACATACATAC (dsDNA) — Kd (Fibroin-modulator-binding protein-1; ITC; double-stranded DNA, one strand shown): 0.107 ± 0.0045 µM
B4 (enzyme Y136L/Y168I) — Km (C=C1CC[C@@H]2C(C)(C)CCC[C@@]2(C)[C@@H]1CC/C(C)=C/COP(=O)(O)OP(=O)(O)O; steady-state kinetics): 2.95 µM
